Assay results pooled from the literature.
Lines come from different studies, so protocols differ. “And” joins repeats or separate records; there may be more than shown. Numbers after ± are the reported error.
GBA2: Beta-glucosidase (GBA2, Homo sapiens, UniProt Q9HCG7)
CASP3: Caspase-3 (CASP3, Homo sapiens, UniProt P42574)
T1: hairpin RNA, hairpin; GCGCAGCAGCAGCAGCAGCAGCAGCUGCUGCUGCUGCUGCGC

O=C1c2sc(-c3ccc(N4CCC(CO)CC4)nc3F)nc2CCN1c1cccnc1
specific binding (TAR DNA-binding protein 43, aggregated (TARDBP, Homo sapiens, UniProt Q13148); radioligand binding; human, FTLD-TDP type B sarkosyl-insoluble extract; 6.91 nM): 0.663 nM and 1.05 nM

CCCCCC=CC=C1C(=O)C=CC1CC=CCCCC(=O)O (centres unmarked)
isoTOP-ABPP competition ratio (Septin-9 (SEPTIN9, Homo sapiens, UniProt Q9UHD8); competitive isoTOP-ABPP, refers to: SEPT9 cysteine peptide; Ramos soluble proteome; 100 µM, with: iodoacetamide probe; relative to: DMSO over compound-treated, higher = stronger cysteine blockade): 2.2

CCCCCCN1C[C@H](O)[C@@H](O)[C@H](O)[C@@H]1CO
selectivity ratio (GBA2; inhibitor, 4MU-β-D-glucopyranoside; HEK293T homogenates overexpressing GBA2; relative to: GCS IC50 over GBA2 IC50): 286

COC1CN([C@H]2CC[C@H]([C@@]3(C)Oc4c(Cl)cc(C(=O)NCc5c(SC)cc(C)[nH]c5=O)c(C)c4O3)CC2)C1
log2 fold change (RNA-seq, refers to: LYPD1; human, whole blood; dose not given, 24 h; relative to: pretreatment baseline): 4.61

Nc1nc(SCc2ccc(Cl)cc2)nn1S(=O)(=O)c1ccccc1[N+](=O)[O-]
probe labeling increase (LYPLAL1 (Homo sapiens, UniProt Q5VWZ2); enzyme activity, activator, gel-based ABPP; purified protein; concentration not given, with: FP-rhodamine; relative to: DMSO): 2 fold

OC[C@@H]1[C@@H](O)[C@H](O)[C@@H](O)CN1CCCCCOCc1ccc(-c2ccccc2)c(C(F)(F)F)c1
selectivity ratio (GBA2; inhibitor, 4MU-β-D-glucopyranoside; HEK293T homogenates overexpressing GBA2; relative to: GBA1 IC50 over GBA2 IC50): 1250

C#CCCC1(CCC(=O)N(CC)CC2CCN(c3c(F)cc4c(=O)c(C(=O)O)cn(CC)c4c3F)C2)N=N1 (racemic)
binding (T1, hairpin RNA, hairpin; gel after photo-cross-linking; covalent): binds weakly

OC[C@@H]1[C@@H](O)[C@H](O)[C@@H](O)CN1CCCCCOCCc1ccsc1
selectivity ratio (GBA2; inhibitor, 4MU-β-D-glucopyranoside; HEK293T homogenates overexpressing GBA2; relative to: GBA1 IC50 over GBA2 IC50): 3000

COc1ccc2c(CNc3ccc(C)cc3)cc(=O)oc2c1
agonist activity (ADRA1B (Homo sapiens, UniProt P35368); intracellular Ca2+ mobilization, agonist; COS-7; 500 µM; relative to: 3 µM ionomycin): 14.1 ± 2.29%

N#CN1CC[C@H](C(=O)Nc2nc3c(s2)CN(C(=O)Cn2cc(COCCOCCOCCOCCNC(=O)CCCC[C@@H]4SC[C@@H]5NC(=O)N[C@@H]54)nn2)CC3)C1
iBAQ abundance (TYMS (Homo sapiens, UniProt P04818); probe binding, affinity probe, neutravidin pull-down LC-MS/MS; HEK293T, cell lysate; 5 µM, 1 h, single replicate, unit not given; higher = more pulled down): 4.71e+08 and 8.27e+08 and 1.05e+08

OC[C@H]1N[C@H](CCCCCCOCC23CC4CC(CC(C4)C2)C3)[C@H](O)[C@@H](O)[C@@H]1O
selectivity ratio (GBA2; inhibitor, 4MU-β-D-glucopyranoside; HEK293T homogenates overexpressing GBA2; relative to: GCS IC50 over GBA2 IC50): 1470

CC[C@H](NC(=O)[C@H](CC(C)C)NC(C)=O)C(=O)N[C@@H](CCC1CCCCC1)C(=O)N[C@@H](CC(=O)O)C(=O)COC(=O)c1c(C)cccc1C
kinact/KI (CASP3; enzyme activity, inhibitor): 104000 M⁻¹ s⁻¹

OC[C@H]1[C@@H](O)[C@H](O)[C@@H](O)CN1CCCCCOCc1ccccc1-c1ccccc1
selectivity ratio (GBA2; inhibitor, 4MU-β-D-glucopyranoside; HEK293T homogenates overexpressing GBA2; relative to: GBA1 IC50 over GBA2 IC50): 5000

N[C@H]1CC[C@H](Nc2nccc(-c3cccnc3Oc3ccc(NC(=O)NC4CC4)c4ccccc34)n2)CC1
log2 LFQ intensity (GRB2 (Homo sapiens, UniProt P62993); kinobead competition pulldown; HEK293/HCT116 lysate mixture; 10 µM, 1 h, 4 °C; lower = stronger competition): 19.6 and 18.6 and 20.4 and 20.8

N=C(N)c1ccc(-c2coc(-c3ccc(C(=N)N)cc3)c2)cc1
remaining activity (PRMT5 (Homo sapiens, UniProt O14744); enzyme activity, inhibitor, radiometric; 20 µM): 70.3%

N#Cc1cnc2sc(C(=O)O)cc2c1N1CCc2[nH]nc(C(=O)N[C@@H](CC(=O)NCCOCCN3CCOCC3)c3cccc(Br)c3)c2C1
remaining activity (Interleukin-1 receptor-like 2 (IL1RL2, Homo sapiens, UniProt Q9HB29); reporter gene (SEAP), inhibitor, HEK-Blue IL-36R reporter; HEK-Blue IL-36R cells; 11.11 µM, 6 h, with: IL36A 0.01 ng/mL): 27.3%

COC(=O)CN1CCCc2cc3cc(C(=O)NC(Cc4cccc(Cl)c4)C(=O)NCC=CS(=O)(=O)c4ccccc4)c(=O)oc3cc21 (centres unmarked)
kinact/Ki (Cathepsin B (CTSB, Homo sapiens, UniProt P07858); inhibitor; with: Z-Arg-Arg-pNA): 844 M⁻¹ s⁻¹

CCCCCOCCCCCN1C[C@H](O)[C@@H](O)[C@H](O)[C@H]1CO
selectivity ratio (GBA2; inhibitor, 4MU-β-D-glucopyranoside; HEK293T homogenates overexpressing GBA2; relative to: GCS IC50 over GBA2 IC50): 50

CCN(CC)C(CO)c1cccc2c(C)c(C)oc12 (centres unmarked)
fold change (LPAR1 (Homo sapiens, UniProt Q92633, W271F); G-protein dissociation, agonist, NanoBiT; HEK-293T; 1 µM, W271F mutant; relative to: baseline luminescence): 0.743 and 0.441 and 0.733 and 0.673 and 0.558 and 0.6

OC[C@@H]1[C@@H](O)[C@H](O)[C@@H](O)CN1CCCCCOCc1ccc(-c2ccc(Cl)cc2)cc1
selectivity ratio (GBA2; inhibitor, 4MU-β-D-glucopyranoside; HEK293T homogenates overexpressing GBA2; relative to: GBA1 IC50 over GBA2 IC50): 250

CC(=O)N[C@H](C(=O)N[C@@H](CCC(=O)O)C(=O)N[C@@H](CO)C(=O)N[C@@H](CC(=O)O)C(=O)COC(=O)c1c(C)cccc1C)[C@@H](C)O
kinact/KI (CASP3; enzyme activity, inhibitor): 92100 M⁻¹ s⁻¹

O=C(NC[C@@H](Cc1ccc(F)cc1)N1CCC(O)(C(F)(F)F)CC1)C1(c2ccc(Cl)cc2)CCCC1
EC50 fold change (TRPA1 (Homo sapiens, UniProt O75762, M912A); calcium influx, agonist; relative to: M912A mutant over wild type): 24.7

Cc1cc(=O)oc2cc(NC(=O)CCCCCCCC(=O)NO)ccc12
binding stoichiometry (HDAC8 (Homo sapiens, UniProt Q9BY41); ITC; Tris buffer; concentration not given, pH 7.5): 0.9

CC(=O)NC(Cc1ccccc1Cl)C(=O)N1CCCC1C(=O)N1CCCC1C(=O)N1CCC2C=CC3C(C)CC(C(=O)O)N3C(=O)C21 (centres unmarked)
binding free energy (Vasodilator-stimulated phosphoprotein, EVH1 domain (VASP, Homo sapiens, UniProt P50552); fluorescence titration; 25 °C): -8.77 kcal/mol

CCCCCN1C[C@H](O)[C@@H](O)[C@H](O)[C@@H]1CO
selectivity ratio (GBA2; inhibitor, 4MU-β-D-glucopyranoside; HEK293T homogenates overexpressing GBA2; relative to: GBA1 IC50 over GBA2 IC50): 4000

CC(=O)N[C@H](C(=O)N[C@@H](CCCCN)C(=O)N[C@@H](CCC(N)=O)C(=O)N[C@@H](CC(=O)O)C(=O)COC(=O)c1c(C)cccc1C)C(C)C
kinact/KI (CASP3; enzyme activity, inhibitor): 9100 M⁻¹ s⁻¹

CCCCCCCCCCCCCCCC(=O)N[C@@H](CCC(=O)O)C(=O)NCCCC[C@H](NC(=O)[C@H](CCCCNC(=N)N)NC(=O)[C@H](CCC(N)=O)NC(=O)[C@H](Cc1c[nH]cn1)NC(=O)[C@H](CCCC)NC(=O)[C@H](CC(C)C)NC(=O)[C@H](CCC(N)=O)NC(=O)[C@@H](NC(=O)[C@H](CCC(=O)O)NC(=O)C(C)(C)NC(=O)[C@@H](NC(=O)C1(N)CCCC1)C(C)C)[C@@H](C)CC)C(N)=O
Emax (PTH1R (Homo sapiens, UniProt Q03431); cAMP response, agonist, GloSensor cAMP; GP-2.3; washout phase): 129 ± 2%

COC(=O)CC(c1cc2ccccc2n(C)c1=O)c1c(O)cc(O)c2c(=O)c(O)c(-c3ccc(O)c(O)c3)oc12 (centres unmarked)
luminescence (B4GALT1 (Homo sapiens, UniProt P15291); enzyme activity, inhibitor, UDP-Glo; 100 µM; lower means stronger inhibition): 8070 a.u.

Fc1ccc(Nc2nc(NC3CCCCC3)c3ccccc3n2)cc1F
maximal inhibition (ADRB2 (Homo sapiens, UniProt P07550, I159A); β-arrestin2 recruitment, antagonist, BRET; mutant I159A; relative to: isoprenaline maximal response): 1.6%

For quick reference, copied from above:
N#CN1CC[C@H](C(=O)Nc2nc3c(s2)CN(C(=O)Cn2cc(COCCOCCOCCOCCNC(=O)CCCC[C@@H]4SC[C@@H]5NC(=O)N[C@@H]54)nn2)CC3)C1
iBAQ abundance (TYMS (Homo sapiens, UniProt P04818); probe binding, affinity probe, neutravidin pull-down LC-MS/MS; HEK293T, cell lysate; 5 µM, 1 h, single replicate, unit not given; higher = more pulled down): 4.71e+08 and 8.27e+08 and 1.05e+08

OC[C@H]1N[C@H](CCCCCCOCC23CC4CC(CC(C4)C2)C3)[C@H](O)[C@@H](O)[C@@H]1O
selectivity ratio (GBA2; inhibitor, 4MU-β-D-glucopyranoside; HEK293T homogenates overexpressing GBA2; relative to: GCS IC50 over GBA2 IC50): 1470

CC[C@H](NC(=O)[C@H](CC(C)C)NC(C)=O)C(=O)N[C@@H](CCC1CCCCC1)C(=O)N[C@@H](CC(=O)O)C(=O)COC(=O)c1c(C)cccc1C
kinact/KI (CASP3; enzyme activity, inhibitor): 104000 M⁻¹ s⁻¹
